Measured values pooled from the literature.
Numbered parts are unrelated; each lists some results of a single study.

Sample 1
Target: Interferon regulatory factor 5, full length, phosphomimetic (IRF5, Homo sapiens, UniProt Q13568-2, residues 1-514, S451D/S453D/S456D/S462D)
Technique: protein-binding microarray
Molecule type: double-stranded DNA, one strand shown
Medium: in vitro
Tested at: 940 nM top
Notes: 60-bp whole probe
Together with: salmon DNA 0.4 mg/ml
Reference: random background probes
Reading: higher = stronger binding
All sequences stand within: GCCTAGCAC … GTCTTGATTCGCTTGACGCTGCTG
`TCAACTCTCAGAATCTCACTGTGCTAG`: “fitted relative affinity” 1.2 z-score.
Under “fitted relative affinity”, `TTAGGTTTCGCGTATCGGTTAGTGCTA` is recorded as 5.33 z-score.
`TCACAAATGCCCTCTCCAACTGTGCTA` — result for “fitted relative affinity”: 0.456 z-score.
For `GACGGACTGCTCTTCCTGACGTGCTAG`, “fitted relative affinity” read -0.399 z-score.
`TCATCATTCCTGATCTCACTGTGCTAG` — result for “fitted relative affinity”: 0.518 z-score.
`GACGTACTGGGGTATCGGGACGTGCTA`: “fitted relative affinity” 0.62 z-score.
`GACGGACTGGATTTTCGGGACGTGCTA`: “fitted relative affinity” -0.222 z-score.
Under “fitted relative affinity”, `GACGGTATCGGTACCGGGACGTGCTAG` is recorded as 9.05 z-score.
`GCCGGTTTCGGTCTCGGGACGTGCTAG`: “fitted relative affinity” 15.1 z-score.
`GACGGTCTCTTACTGCTGACGTGCTAG` — result for “fitted relative affinity”: 0.284 z-score.
`GACGGTTTCGGTAACGGGACGTGCTAG`: “fitted relative affinity” 12.7 z-score.
For `TTGGGACTGCTACTGCTTTAGTGCTAG`, “fitted relative affinity” read -0.443 z-score.
Under “fitted relative affinity”, `CAGTTTTCCTATGTCATTTAGTGCTAG` is recorded as 2.26 z-score.
`TTAGGTCTCCTCTTCCTTTAGTGCTAG` — result for “fitted relative affinity”: 0.501 z-score.
For `GACGGTTTCTTTCTCCTGACGTGCTAG`, “fitted relative affinity” read 3.21 z-score.
Under “fitted relative affinity”, `GACGAACTGGGGTTACGAGACGTGCTA` is recorded as -0.0111 z-score.
For `TTACGACTGGGGTATCGGTTAGTGCTA`, “fitted relative affinity” read 3.46 z-score.
Under “fitted relative affinity”, `GACGAACTGTGTTTCGAGACGTGCTAG` is recorded as 0.46 z-score.
`GGCTTGACGTCATCCCCTTGGTGCTAG`: “fitted relative affinity” -0.701 z-score.

Sample 2
Target: Histone acetyltransferase KAT6A, both winged helices, GST fusion (KAT6A, Homo sapiens, UniProt Q92794, residues 1-181)
Technique: protein binding microarray
Molecule type: double-stranded DNA, one strand shown
Medium: in vitro
Tested at: not given
Notes: 8-mer, flanks averaged, mean of 2 arrays, mostly near background
Reference: not given
Reading: higher = stronger binding
Construct (chain): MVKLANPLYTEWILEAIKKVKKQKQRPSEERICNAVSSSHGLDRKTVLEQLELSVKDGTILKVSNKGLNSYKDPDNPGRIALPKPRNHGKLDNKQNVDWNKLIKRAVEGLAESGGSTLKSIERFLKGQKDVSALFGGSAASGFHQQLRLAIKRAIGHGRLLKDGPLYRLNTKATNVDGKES
`AGCGAGTA` gave an E-score of 0.0734.
With `CTTGAGGA` the E-score was -0.162.
`CGACAATA` has an E-score of 0.0326.
With `ACCATCCA` the E-score was -0.128.
The E-score of `ACACACAG` is reported as -0.136.
With `ATGCGGTG` the E-score was 0.149.
`CATGCACG` gave an E-score of 0.0274.
`GAGAATAC` has an E-score of -0.0144.
For `GACACATC`, the E-score was -0.11.
With `CAGCGCCG` the E-score was 0.337.
The E-score of `CCATGTCG` is reported as -0.165.
With `AGGAATTG` the E-score was -0.174.
For `ACGGGCTA`, the E-score was 0.185.
With `AAGTAATG` the E-score was -0.0568.
With `GTGACGTA` the E-score was -0.0207.
`GCCGCACA` has an E-score of 0.192.
With `ATGCAACC` the E-score was 0.00872.
`AGGCACAG` gave an E-score of -0.148.
With `AAGCGCAT` the E-score was 0.13.
For `ACACACGG`, the E-score was 0.221.
`AATCAGAC` gave an E-score of -0.06.
With `TCCACACA` the E-score was -0.1.
The E-score of `CGCTCACC` is reported as 0.119.
`TATGAAAA` gave an E-score of -0.00336.
`GTATGAAA` gave an E-score of -0.0162.

Sample 3
Target: Prothrombin, mature alpha-thrombin (F2, Homo sapiens, UniProt P00734)
Technique: aptamer microarray, sandwich
Molecule type: DNA with 2'F-ANA
Medium: in vitro
Tested at: 200 nM
Notes: whole 15-mer aptamer, many near background
Together with: Cy3 exosite-II aptamer, 400 nM
Reading: higher = stronger binding
Oligonucleotide: GGTTGGTGTGGTTGG
For `2'F-ANA at 2 4 6 7 11 13`, “mean fluorescence intensity” read 164 a.u.
`2'F-ANA at 2 5 7 14` — result for “mean fluorescence intensity”: 48.3 a.u.
Under “mean fluorescence intensity”, `2'F-ANA at 1 4 5 6 7 8 11` is recorded as 53 a.u.
`2'F-ANA at 2 3 4 5 7 8 12 14 15` — result for “mean fluorescence intensity”: 79.3 a.u.
Under “mean fluorescence intensity”, `2'F-ANA at 1 2 5 10 11 13 15` is recorded as 47.7 a.u.
For `2'F-ANA at 1 2 4 7 9 12 13 14`, “mean fluorescence intensity” read 53.8 a.u.
Under “mean fluorescence intensity”, `2'F-ANA at 1 2 4 5 8 9 11 12 15` is recorded as 84 a.u.
For `2'F-ANA at 4 6 7 11 12 15`, “mean fluorescence intensity” read 380 a.u.
`2'F-ANA at 1 2 4 7 9 10 13 15`: “mean fluorescence intensity” 50.1 a.u.
`2'F-ANA at 1 2 5 7 12 13 14 15`: “mean fluorescence intensity” 47.3 a.u.
Under “mean fluorescence intensity”, `2'F-ANA at 4 5 9 13` is recorded as 47.4 a.u.
`2'F-ANA at 2 5 6 9 10 11 12 13 14`: “mean fluorescence intensity” 66.2 a.u.
Under “mean fluorescence intensity”, `2'F-ANA at 2 4 7 8 9 14` is recorded as 117 a.u.
Under “mean fluorescence intensity”, `2'F-ANA at 2 3 6 8 9 12` is recorded as 1120 a.u.
`2'F-ANA at 1 2 3 4 6 7 9 11 12 14 15` — result for “mean fluorescence intensity”: 63.2 a.u.
`2'F-ANA at 1 3 5 7 9 14`: “mean fluorescence intensity” 52.1 a.u.
For `2'F-ANA at 3 7 8 12`, “mean fluorescence intensity” read 1760 a.u.

Sample 4
Target: RNA binding protein fox-1 homolog 2, RRM domain, GST-SBP tag (RBFOX2, Homo sapiens, UniProt O43251-10, residues 100-194)
Technique: RNA Bind-n-Seq
Molecule type: RNA
Medium: in vitro
Tested at: 365 nM
Notes: natural RNA segment, single round, ends assumed
Reference: no-protein control
Reading: higher = stronger binding
Construct (chain): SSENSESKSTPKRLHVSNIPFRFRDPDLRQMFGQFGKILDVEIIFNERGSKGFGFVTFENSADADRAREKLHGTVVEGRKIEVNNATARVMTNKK
`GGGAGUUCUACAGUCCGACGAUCCUUGCUGACCAAAAACUACUGGAGAGUAACACAGGUUAUAUGCCAUCACAAAUACAAUGCUCAUGAAGAACUGAUUUGUAGAGUCAAUGAACCUGUGUCCAGAAUUUUAAUGGAAUUCUCGGGUGCCAA`: “RBNS enrichment (R)” 0.393.
For `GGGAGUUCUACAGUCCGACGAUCUCUGUGAUUGCUAAGCAGUAGCCAAAUAACCUUCCUUUGCUGUAUCUGCGUCCCUUCUGAAGGCACUUUAUGGAGGUCACAUCUGGUUUUGUUUCCAUUUUUUUUUUUUUUGGAAUUCUCGGGUGCCAA`, “RBNS enrichment (R)” read 1.03.
For `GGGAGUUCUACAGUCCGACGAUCGUGCUGUUUUAAUUACCUAACGUCUGUGUAACUGCUGAUUUGAGUAGUGAUUAGCAUUUAGAUAAUGUAACAGGAUUUUAGAGAGCACUUUGAAAGAUAACAUUUUAUUAUGGAAUUCUCGGGUGCCAA`, “RBNS enrichment (R)” read 0.337.
For `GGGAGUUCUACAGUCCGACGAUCCUAGCUCCCGGUAGAGGAUCACCGGUGACAACUAUAGCAGUUGUAUUGUGUAACAAGUACUGCUCCCAGCAGCAAUUAGGGAGAAAACUAGUCUAAAUUAUUUCAACUGGUGGAAUUCUCGGGUGCCAA`, “RBNS enrichment (R)” read 0.363.
For `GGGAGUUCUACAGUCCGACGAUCAGGUCUUCCAUGUUUGAGGAAAUGUCUUGCACUAUUGCAUAUAUUUUGUGGACACAGAUUUUUGUAGUUUCCAUUUUGGAAGGCUAAAGUGUUUUGUUUGUUUGAAACAGUGGAAUUCUCGGGUGCCAA`, “RBNS enrichment (R)” read 1.37.
For `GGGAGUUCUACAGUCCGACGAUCAAUCCGUAGUUUGUGGGUAUCAGUUGCGGUAGAGAUGCAACAUUUGUGACUCUGUUGCUAACGGUUACCACUUCCGAUCGCCCUGUACAUACAUAUGCCGUAAGGCGCAAUGGAAUUCUCGGGUGCCAA`, “RBNS enrichment (R)” read 0.249.
`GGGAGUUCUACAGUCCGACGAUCAGCCGUUGCAGCCCCACGUUGUGCUCUAGGCAGGGACCUUUGGCCCCUUUGGGGAGGGAGAGACAGACGGGCGGUUUGACUUGGACACAAAGAAAGCCUUGGUUUCUAAGUGGAAUUCUCGGGUGCCAA`: “RBNS enrichment (R)” 0.751.
`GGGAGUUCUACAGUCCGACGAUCCCUUGCAUUUCCUUCUUAACUCUCUGUUACACGUCAUUGAAACUACACUUUUUUGGUCUGUUUUUGUGCUAGACUGUAAGUUCCUUGGGGGCAGGGCCUUUGUCUGUCUCUGGAAUUCUCGGGUGCCAA` — result for “RBNS enrichment (R)”: 0.493.

Some of these lines once more (sample 2):
For `ACACACGG`, the E-score was 0.221.
`TATGAAAA` gave an E-score of -0.00336.
The E-score of `ACACACAG` is reported as -0.136.
With `GTGACGTA` the E-score was -0.0207.
